Published values gathered from unrelated publications.
Every numbered part comes from another study and shows a few of its results, in no order.

Block 1
Target: Ras GTPase-activating protein-binding protein 1, RRM domain (G3BP1, Homo sapiens, UniProt Q13283)
UniProt Q13283, sequence (whole entry, looked up): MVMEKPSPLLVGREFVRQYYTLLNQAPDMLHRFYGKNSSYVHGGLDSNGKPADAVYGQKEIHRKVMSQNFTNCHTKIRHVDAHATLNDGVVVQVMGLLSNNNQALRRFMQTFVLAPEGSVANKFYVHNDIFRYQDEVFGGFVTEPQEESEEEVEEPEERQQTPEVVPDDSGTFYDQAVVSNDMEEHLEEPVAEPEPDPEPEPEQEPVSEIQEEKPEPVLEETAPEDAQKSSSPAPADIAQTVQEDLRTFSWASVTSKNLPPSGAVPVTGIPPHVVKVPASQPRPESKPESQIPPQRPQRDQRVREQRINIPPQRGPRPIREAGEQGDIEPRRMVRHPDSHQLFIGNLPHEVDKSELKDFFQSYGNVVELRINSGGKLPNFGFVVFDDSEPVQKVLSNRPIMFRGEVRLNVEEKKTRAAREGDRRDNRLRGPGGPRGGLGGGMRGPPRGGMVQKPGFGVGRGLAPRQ
Technique: RNA Bind-n-Seq
Molecule type: RNA
Sample: in vitro
Concentration: 1 µM
Setting: whole 134-nt RNA, ends assumed
With: 150 mM KCl
Reference: input library
Reading: higher = stronger binding
Endpoint: log2 enrichment
Constant ends, left off below: GGGAGUUCUACAGUCCGACGAUC … UGGAAUUCUCGGGUGUCAAGG
Sequence = AAGUCCUGUGCUACACAUCGUAUGUACCGAAUCGGGGAAAGGGGAAAGGGAAAGGGAAAGUAUUAUGUUACGCCGUUCGGAUCUGCACUU; value = 0.393
Sequence = UGUGAGAUUAAACUUGCCCCCAAACGAUCUCGUUUGGAGACUAGAGCUGGAGAAGAAGAUGAAGGAGAAGAGGAUUCUGAUUCUGAUUAU; value = -0.203
Sequence = CAAGUCCUGUGCUACACAUCGUAUGUACCGAAUCGGAAAAAAAGGAAAAAGGUGGAAAGUAUUAUGUUACGCCGUUCGGAUCUGCACUUC; value = -0.07
Sequence = UUCAAAACAGAAUCCUUCCAGUCCUCUUCAGCGUUUAAUUCCAGGCUCAAACUUGGACAGUGAACCCAGAAUUCAAACAGAUAUACUAAA; value = -0.000203
Sequence = CUCAAGUCCUGUGCUACACAUCGUAUGUACCGAAUCGGAAAAAGGAAAGGUGGAAAGUAUUAUGUUACGCCGUUCGGAUCUGCACUUCCA; value = -0.193
Sequence = CCUGUGCUACACAUCGUAUGUACCGAAUCGGGGUUUUUUUGGGGAAAAAAAGGGGUGGGGAAAGUAUUAUGUUACGCCGUUCGGAUCUGC; value = 0.0851
Sequence = UGGCCCUGGUGGCAUGCGGGGAGGAAGAGGUGGCCUCAUGGAUCGUGGUGGUCCCGGUGGAAUGUUCAGAGGUGGCCGUGGAGGAGACAG; value = 1.89
Sequence = UCCUGUGCUACACAUCGUAUGUACCGAAUCGGAAAAAAGGGAAAAAAGGGAAAAAAGGGAAAGUAUUAUGUUACGCCGUUCGGAUCUGCA; value = 0.061
Sequence = ACCAUGCAGGUGGGCAUCUUUGGGAAGUGGGGCAAGGGGGGGAUAGGGAGGGGGGUAACACUUUGCGAACAGGUGGUCCCAGGUCGUUUC; value = 1.01
Sequence = UGCUGCUUUCUGCCUUGGUGGCAGGCAGAGAACUGUCUCGUACUAGAAUUCAAGGAGGAAAGAAGAAGAAAUAAAAGAAGCUGCUCCAUU; value = -0.0395
Sequence = CCUGUGCUACACAUCGUAUGUACCGAAUCGGGGAAAAAAGGGGAAAAAAGGAAAAAAGGGAAAGUAUUAUGUUACGCCGUUCGGAUCUGC; value = -0.00977
Sequence = GUCCUGUGCUACACAUCGUAUGUACCGAAUCGGGUUUUUUUGGGUUUGGGAAAAAGGGAAAGUAUUAUGUUACGCCGUUCGGAUCUGCAC; value = -0.129
Sequence = CAAGUCCUGUGCUACACAUCGUAUGUACCGAAUCGGUUUUGGUUUUGGGUUUUGGGAAAGUAUUAUGUUACGCCGUUCGGAUCUGCACUU; value = -0.218
Sequence = CCUGUGCUACACAUCGUAUGUACCGAAUCGGGGUUUUUUUGGGGUUUUUUUGGGGAGGGGAAAGUAUUAUGUUACGCCGUUCGGAUCUGC; value = 0.263

Block 2
Target: Prothrombin, mature alpha-thrombin (F2, Homo sapiens, UniProt P00734)
Technique: aptamer microarray, sandwich
Molecule type: DNA with 2'F-ANA
Sample: in vitro
Concentration: 200 nM
Setting: whole 15-mer aptamer, many near background
With: Cy3 exosite-II aptamer, 400 nM
Reading: higher = stronger binding
Endpoint: mean fluorescence intensity
Sequence: GGTTGGTGTGGTTGG
Modification = 2'F-ANA at 2 4 5 7 8 10 13 15; value = 86.4 a.u.
Modification = 2'F-ANA at 2 5 6 9 10 11 12 14; value = 44.9 a.u.
Modification = 2'F-ANA at 3 5 6 7 8 9 15; value = 153 a.u.
Modification = 2'F-ANA at 1 8 11 13 14; value = 82.8 a.u.
Modification = 2'F-ANA at 2 5 6 8 9 11; value = 90.4 a.u.
Modification = 2'F-ANA at 2 5 8 9; value = 91.3 a.u.
Modification = 2'F-ANA at 3 5 6 7 11 12 15; value = 243 a.u.
Modification = 2'F-ANA at 4 5 8 10 13 14 15; value = 46.4 a.u.
Modification = 2'F-ANA at 1 6 8 13 15; value = 141 a.u.
Modification = 2'F-ANA at 1 2 3 4 5 8 9 10 11 14; value = 63.1 a.u.
Modification = 2'F-ANA at 2 4 5 7 8 11; value = 108 a.u.
Modification = 2'F-ANA at 2 3 4 6 7 9 10 12 15; value = 272 a.u.
Modification = 2'F-ANA at 1 10 11 12; value = 62.2 a.u.
Modification = 2'F-ANA at 1 3 6 9 13; value = 174 a.u.
Modification = 2'F-ANA at 1 2 4 6 7 8 10 11 14 15; value = 55.9 a.u.
Modification = 2'F-ANA at 1 2 4 6 7 8 11 13 14 15; value = 53.6 a.u.
Modification = 2'F-ANA at 3 5 7 9 14; value = 56 a.u.
Modification = 2'F-ANA at 2 3 4 5 6 7 9 10 14; value = 49 a.u.
Modification = 2'F-ANA at 1 2 5 7 9 10 11 12 13 14 15; value = 64.6 a.u.
Modification = 2'F-ANA at 3 5 7 8 10 12 13 14 15; value = 56.3 a.u.
Modification = 2'F-ANA at 2 3 4 7 15; value = 730 a.u.
Modification = 2'F-ANA at 1 2 3 4 5 7 11 12 13; value = 70.7 a.u.
Modification = 2'F-ANA at 2 5 6 10 14 15; value = 43.3 a.u.

Block 3
Target: RING finger protein unkempt homolog, zinc fingers 1-6, GST-SBP tag (UNK, Homo sapiens, UniProt Q9C0B0, residues 30-357)
Technique: RNA Bind-n-Seq
Molecule type: RNA
Sample: in vitro
Concentration: not given
Setting: RNA with constant flanks, ends assumed
Reference: input RNA pool
Reading: higher = stronger binding
Endpoint: bound/input enrichment
Constant ends, left off below: GGGAGUUCUACAGUCCGACGAUC … CAACAGAGGAUUGAGCAUCA
Target sequence (chain): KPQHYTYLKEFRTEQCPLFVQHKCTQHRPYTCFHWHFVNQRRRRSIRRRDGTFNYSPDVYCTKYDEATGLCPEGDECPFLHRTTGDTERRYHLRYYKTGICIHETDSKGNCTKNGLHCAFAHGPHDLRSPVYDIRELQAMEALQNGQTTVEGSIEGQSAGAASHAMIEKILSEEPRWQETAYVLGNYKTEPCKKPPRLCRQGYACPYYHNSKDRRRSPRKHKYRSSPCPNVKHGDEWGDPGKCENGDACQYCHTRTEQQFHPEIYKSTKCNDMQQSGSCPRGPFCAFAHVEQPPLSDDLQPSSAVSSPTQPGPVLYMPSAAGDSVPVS
Sequence = CCCCACCCCUUUGCCUCUUUCCACCCGGGCCUCAACCCUUUGGAGCGGGAGAGACUGGCACCCGCAGGUCCUCAGCUGCGGCCUGAGAUGAGUUACCCAGACAGACUGGCAGCCGAGCGC; value = 0.343 ratio
Sequence = UUUCCAGACCAAGGAUACAGAGGCCGAGGCAGAGGCGAGUAUUACUCCAGAGGUCGGAGCUACCGAGGCUCUUAUGGGGGUCGUGGCAGAGGUGGUAGAGGGCACACUCGUGAGUAUCCU; value = 0.256 ratio
Sequence = GUGGAGGCCCUUUGUGCUGAACACCAAAUCAACCUAAUUAAGGUUGAUGACAACAAGAAACCCGGAGAAUGGGUAGGCCUUUGUAAAAUUGACAGAGAGGGGAAACCCCGUAAAGUGGUU; value = 0.146 ratio
Sequence = GCAAAUUUUGCCAGGAACGAUGGAAAUUGUAUUCAUAUGGUAGACAAUGGGAUUGCCGAAAAACUCAUGGAUUUGCUGGACAGACACGUAGAAGACGGGAACGUGACGGUGCAGCACGCC; value = 0.161 ratio
Sequence = AAGAUUUAAUAUAUAAAGAUUUAAUAUGAGUUAAACAUGUUUCUUAUUCUGUGAUCUCUAAUCCGAAAGUAAAAUUCUGUUGCCAUAAAUAUAAAAGAAAGUUUUCACUUAUAUUUUAGU; value = 0.602 ratio
Sequence = AUUUUCCUGUGCUCAAUGUGUAAAUUGUAUCAUAACUCAUUGUGGUUGAUUUCACUUUGAUUCCGUGGCAUCUUAAUAAAUGGGGGUGUUACUGAAUCACUCUUCCCACUUCCAUUUCUU; value = 0.267 ratio
Sequence = GACCCAACUCCAACAAUGAGAGAUGUGAACAAAAAAUUUUCAGUAAGGUACUUUUUGAAUUCCGUGCUUGUUGAUGAGGAAGACCGGAGGUACUUCAAACAGCAGGAGAUAAUUUUAUGG; value = 0.252 ratio
Sequence = AAAGAGAAACUAAAGCAACUAAUAGAGAAGAGGAUUGGCAAAGAGAAUUUCAUAGAGAAACCCGGAUUUAUUAGCAAACAUGAGUUAUAUUCCAGAGCGUCUCAGAAACCCCAGCCAAAC; value = 0.96 ratio
Sequence = CAGAACCUAAACUUAUAGCAAAAGAGCCAAGCAGUAGCAGUUUUUGUAAAUGUAAAAAUAAUCCGAUCCAGACUUUGUUUCCUUCAAUUUUAAAAAUAAAAAAUACCUCAGUGCUAUGUU; value = 2.63 ratio
Sequence = GACAACUCUGUCCCUACGACCGGGUCGUUAAGCGCCGUUGCAGCCAUGGCUACUGCUCCCGGAUUUCGCUGCCUUUUCCGAACGCGACCUGCGCCGCUCUGUCGGCACGUCGACCGGCUG; value = 0.0871 ratio
Sequence = AGCAUGAAUAUGAAGAGCAGGUUUGAUAUAAAAUCAAUGGCAGGGAAUAUCAUUCCUGCUACCGCUACUACUAAUGCAGUGAUCGCCGGCUUGAUAGUGUUGGAAGGAUUAAAGAUUUUA; value = 0.503 ratio

Block 4
Target: Histone acetyltransferase KAT6A, winged helix 2, GST fusion (KAT6A, Homo sapiens, UniProt Q92794, residues 85-181)
Technique: protein binding microarray
Molecule type: double-stranded DNA, one strand shown
Sample: in vitro
Concentration: not given
Setting: 8-mer, flanks averaged, mean of 2 arrays, mostly near background
Reference: not given
Reading: higher = stronger binding
Endpoint: E-score
Residues (chain): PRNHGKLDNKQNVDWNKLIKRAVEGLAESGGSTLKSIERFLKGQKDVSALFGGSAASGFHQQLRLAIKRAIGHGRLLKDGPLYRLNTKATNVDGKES
Sequence = ATGCACCG; value = 0.0325
Sequence = CCATCCCA; value = 0.0251
Sequence = GCGATATA; value = 0.166
Sequence = CATTGCGG; value = -0.0639
Sequence = CTCGTAAG; value = 0.0625
Sequence = AAAAAGGG; value = -0.0211
Sequence = GCGCACAA; value = 0.156
Sequence = CAACGAAG; value = 0.0563
Sequence = ACGAGAGC; value = 0.0807
Sequence = AACTACTT; value = -0.131
Sequence = GATTAGTA; value = -0.0278
Sequence = CAGTCAAA; value = 0.044
Sequence = CCTTGTAA; value = 0.0405
Sequence = AAAGTAAG; value = -0.0769
Sequence = TGTATACA; value = 0.0781
Sequence = ATAGTGGC; value = -0.0553
Sequence = GATTTGTA; value = 0.0703
Sequence = ATCAGATC; value = -0.118
Sequence = ACCTAAGA; value = -0.162
Sequence = GGGGATGA; value = -0.173
Sequence = CAGGCGGC; value = 0.136
Sequence = AACGTGTC; value = -0.202
Sequence = CACACCGA; value = 0.0718
Sequence = ACCAATTA; value = 0.0193
Sequence = GGGCACCC; value = 0.177

Excerpt of the above (block 3):
Sequence = CCCCACCCCUUUGCCUCUUUCCACCCGGGCCUCAACCCUUUGGAGCGGGAGAGACUGGCACCCGCAGGUCCUCAGCUGCGGCCUGAGAUGAGUUACCCAGACAGACUGGCAGCCGAGCGC; value = 0.343 ratio
Sequence = UUUCCAGACCAAGGAUACAGAGGCCGAGGCAGAGGCGAGUAUUACUCCAGAGGUCGGAGCUACCGAGGCUCUUAUGGGGGUCGUGGCAGAGGUGGUAGAGGGCACACUCGUGAGUAUCCU; value = 0.256 ratio
Sequence = GUGGAGGCCCUUUGUGCUGAACACCAAAUCAACCUAAUUAAGGUUGAUGACAACAAGAAACCCGGAGAAUGGGUAGGCCUUUGUAAAAUUGACAGAGAGGGGAAACCCCGUAAAGUGGUU; value = 0.146 ratio
Sequence = GCAAAUUUUGCCAGGAACGAUGGAAAUUGUAUUCAUAUGGUAGACAAUGGGAUUGCCGAAAAACUCAUGGAUUUGCUGGACAGACACGUAGAAGACGGGAACGUGACGGUGCAGCACGCC; value = 0.161 ratio
Sequence = AAGAUUUAAUAUAUAAAGAUUUAAUAUGAGUUAAACAUGUUUCUUAUUCUGUGAUCUCUAAUCCGAAAGUAAAAUUCUGUUGCCAUAAAUAUAAAAGAAAGUUUUCACUUAUAUUUUAGU; value = 0.602 ratio
Sequence = AUUUUCCUGUGCUCAAUGUGUAAAUUGUAUCAUAACUCAUUGUGGUUGAUUUCACUUUGAUUCCGUGGCAUCUUAAUAAAUGGGGGUGUUACUGAAUCACUCUUCCCACUUCCAUUUCUU; value = 0.267 ratio
Sequence = GACCCAACUCCAACAAUGAGAGAUGUGAACAAAAAAUUUUCAGUAAGGUACUUUUUGAAUUCCGUGCUUGUUGAUGAGGAAGACCGGAGGUACUUCAAACAGCAGGAGAUAAUUUUAUGG; value = 0.252 ratio
Sequence = AAAGAGAAACUAAAGCAACUAAUAGAGAAGAGGAUUGGCAAAGAGAAUUUCAUAGAGAAACCCGGAUUUAUUAGCAAACAUGAGUUAUAUUCCAGAGCGUCUCAGAAACCCCAGCCAAAC; value = 0.96 ratio
Sequence = CAGAACCUAAACUUAUAGCAAAAGAGCCAAGCAGUAGCAGUUUUUGUAAAUGUAAAAAUAAUCCGAUCCAGACUUUGUUUCCUUCAAUUUUAAAAAUAAAAAAUACCUCAGUGCUAUGUU; value = 2.63 ratio
Sequence = GACAACUCUGUCCCUACGACCGGGUCGUUAAGCGCCGUUGCAGCCAUGGCUACUGCUCCCGGAUUUCGCUGCCUUUUCCGAACGCGACCUGCGCCGCUCUGUCGGCACGUCGACCGGCUG; value = 0.0871 ratio
